Experimental data from different studies.
Numbered parts are unrelated; each lists some results of a single study.

Block 1 — method: protein binding microarray; molecule type: double-stranded DNA, one strand shown; medium: in vitro; concentration: not given; baseline: not given; reading: higher = stronger binding
Target: Histone acetyltransferase KAT6A, winged helix 2, GST fusion (KAT6A, Homo sapiens, UniProt Q92794, residues 85-181)
Notes: 8-mer, flanks averaged, mean of 2 arrays, mostly near background
Target sequence (chain): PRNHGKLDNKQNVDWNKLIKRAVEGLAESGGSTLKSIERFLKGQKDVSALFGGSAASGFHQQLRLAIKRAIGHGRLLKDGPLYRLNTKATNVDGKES
| Strand | E-score |
| --- | --- |
| AATTACTG | -0.134 |
| CTCGGTAA | -0.0588 |
| TGAGTGAA | -0.141 |
| GGTGAAAC | 0.124 |
| TCTAGAGA | -0.0932 |

Block 2 — method: aptamer microarray, sandwich; molecule type: DNA with 2'F-ANA; medium: in vitro; concentration: 200 nM; added: Cy3 exosite-II aptamer, 400 nM; reading: higher = stronger binding
Target: Prothrombin, mature alpha-thrombin (F2, Homo sapiens, UniProt P00734)
Notes: whole 15-mer aptamer, many near background
| Strand | mean fluorescence intensity [a.u.] |
| --- | --- |
| GGTTGGTGTGGTTGG (2'F-ANA at 2 5 7 9 10 12 14) | 48 |
| GGTTGGTGTGGTTGG (2'F-ANA at 1 3 5 6 7 8 9 10 13 14) | 44 |
| GGTTGGTGTGGTTGG (2'F-ANA at 1 3 4 7 12 13 15) | 340 |
| GGTTGGTGTGGTTGG (2'F-ANA at 2 5 6 7 9 13 14 15) | 47.3 |

Block 3 — method: universal PBM; molecule type: double-stranded DNA, one strand shown; medium: in vitro; concentration: 600 nM; reading: higher = stronger binding
Target: Sal-like protein 4, full length isoform A (SALL4, Homo sapiens, UniProt Q9UJQ4, residues 1-1053)
UniProt Q9UJQ4, sequence (whole entry, looked up): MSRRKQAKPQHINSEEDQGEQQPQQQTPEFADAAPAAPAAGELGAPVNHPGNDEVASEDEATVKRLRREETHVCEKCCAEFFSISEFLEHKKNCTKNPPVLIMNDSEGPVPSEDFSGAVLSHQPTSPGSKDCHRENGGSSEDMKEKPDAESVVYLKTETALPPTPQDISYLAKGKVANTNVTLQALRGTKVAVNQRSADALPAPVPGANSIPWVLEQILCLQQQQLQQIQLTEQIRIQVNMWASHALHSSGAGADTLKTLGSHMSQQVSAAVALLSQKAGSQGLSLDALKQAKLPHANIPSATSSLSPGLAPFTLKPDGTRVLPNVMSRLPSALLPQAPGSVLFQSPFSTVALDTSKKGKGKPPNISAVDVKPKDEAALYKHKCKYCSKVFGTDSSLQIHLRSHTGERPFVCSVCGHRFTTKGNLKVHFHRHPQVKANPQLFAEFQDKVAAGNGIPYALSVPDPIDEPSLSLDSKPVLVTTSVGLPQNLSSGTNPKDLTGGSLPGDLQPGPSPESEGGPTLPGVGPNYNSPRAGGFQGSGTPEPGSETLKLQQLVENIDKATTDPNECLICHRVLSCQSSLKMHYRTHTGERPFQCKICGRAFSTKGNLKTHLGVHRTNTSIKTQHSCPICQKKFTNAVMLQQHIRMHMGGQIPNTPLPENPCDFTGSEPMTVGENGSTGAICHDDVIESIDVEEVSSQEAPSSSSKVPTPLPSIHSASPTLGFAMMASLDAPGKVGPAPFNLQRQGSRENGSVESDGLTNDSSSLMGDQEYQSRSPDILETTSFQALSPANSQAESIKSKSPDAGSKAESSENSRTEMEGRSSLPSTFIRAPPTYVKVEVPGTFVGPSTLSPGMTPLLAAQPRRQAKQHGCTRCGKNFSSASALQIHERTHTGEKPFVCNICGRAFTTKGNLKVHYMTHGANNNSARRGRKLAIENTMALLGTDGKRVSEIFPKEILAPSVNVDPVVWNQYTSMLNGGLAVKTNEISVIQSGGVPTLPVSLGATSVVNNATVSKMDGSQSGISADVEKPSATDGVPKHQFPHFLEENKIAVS
Notes: 8-mer, flanks averaged, mean of replicates
| Strand | E-score |
| --- | --- |
| ATGTCTCA | 0.169 |
| CTGGAGCC | -0.287 |
| ATTCCGAC | -0.051 |
| GCGGCCGA | -0.2 |
| GTCAGCAC | -0.119 |
| GAACATAC | 0.143 |
| ATCTTGCC | -0.0128 |

Mixed results
| Substance | target | test | test system | conditions | how to read | endpoint | value |
| --- | --- | --- | --- | --- | --- | --- | --- |
| PhoQ, residues 284 288 289 292 302 303 GTAMQF | PhoP, residues 12 14 15 18 19 AWHSL (Escherichia coli, UniProt P23836) | Sort-seq, item: YFP reporter | E. coli | PhoQ-PhoP variant library, added: 10 µM Mg2+ | baseline: high Mg2+ state, higher = stronger signaling | fold induction | 2.1 |

A few entries again (block 2):
| Strand | mean fluorescence intensity [a.u.] |
| --- | --- |
| GGTTGGTGTGGTTGG (2'F-ANA at 1 3 4 7 12 13 15) | 340 |
| GGTTGGTGTGGTTGG (2'F-ANA at 2 5 6 7 9 13 14 15) | 47.3 |
